# Measurements of several laboratories.
# Each numbered part is a random draw from the data of one study; scales do not carry over between parts.
# UniProt Q9UM73, sequence (whole entry, unmodified, looked up): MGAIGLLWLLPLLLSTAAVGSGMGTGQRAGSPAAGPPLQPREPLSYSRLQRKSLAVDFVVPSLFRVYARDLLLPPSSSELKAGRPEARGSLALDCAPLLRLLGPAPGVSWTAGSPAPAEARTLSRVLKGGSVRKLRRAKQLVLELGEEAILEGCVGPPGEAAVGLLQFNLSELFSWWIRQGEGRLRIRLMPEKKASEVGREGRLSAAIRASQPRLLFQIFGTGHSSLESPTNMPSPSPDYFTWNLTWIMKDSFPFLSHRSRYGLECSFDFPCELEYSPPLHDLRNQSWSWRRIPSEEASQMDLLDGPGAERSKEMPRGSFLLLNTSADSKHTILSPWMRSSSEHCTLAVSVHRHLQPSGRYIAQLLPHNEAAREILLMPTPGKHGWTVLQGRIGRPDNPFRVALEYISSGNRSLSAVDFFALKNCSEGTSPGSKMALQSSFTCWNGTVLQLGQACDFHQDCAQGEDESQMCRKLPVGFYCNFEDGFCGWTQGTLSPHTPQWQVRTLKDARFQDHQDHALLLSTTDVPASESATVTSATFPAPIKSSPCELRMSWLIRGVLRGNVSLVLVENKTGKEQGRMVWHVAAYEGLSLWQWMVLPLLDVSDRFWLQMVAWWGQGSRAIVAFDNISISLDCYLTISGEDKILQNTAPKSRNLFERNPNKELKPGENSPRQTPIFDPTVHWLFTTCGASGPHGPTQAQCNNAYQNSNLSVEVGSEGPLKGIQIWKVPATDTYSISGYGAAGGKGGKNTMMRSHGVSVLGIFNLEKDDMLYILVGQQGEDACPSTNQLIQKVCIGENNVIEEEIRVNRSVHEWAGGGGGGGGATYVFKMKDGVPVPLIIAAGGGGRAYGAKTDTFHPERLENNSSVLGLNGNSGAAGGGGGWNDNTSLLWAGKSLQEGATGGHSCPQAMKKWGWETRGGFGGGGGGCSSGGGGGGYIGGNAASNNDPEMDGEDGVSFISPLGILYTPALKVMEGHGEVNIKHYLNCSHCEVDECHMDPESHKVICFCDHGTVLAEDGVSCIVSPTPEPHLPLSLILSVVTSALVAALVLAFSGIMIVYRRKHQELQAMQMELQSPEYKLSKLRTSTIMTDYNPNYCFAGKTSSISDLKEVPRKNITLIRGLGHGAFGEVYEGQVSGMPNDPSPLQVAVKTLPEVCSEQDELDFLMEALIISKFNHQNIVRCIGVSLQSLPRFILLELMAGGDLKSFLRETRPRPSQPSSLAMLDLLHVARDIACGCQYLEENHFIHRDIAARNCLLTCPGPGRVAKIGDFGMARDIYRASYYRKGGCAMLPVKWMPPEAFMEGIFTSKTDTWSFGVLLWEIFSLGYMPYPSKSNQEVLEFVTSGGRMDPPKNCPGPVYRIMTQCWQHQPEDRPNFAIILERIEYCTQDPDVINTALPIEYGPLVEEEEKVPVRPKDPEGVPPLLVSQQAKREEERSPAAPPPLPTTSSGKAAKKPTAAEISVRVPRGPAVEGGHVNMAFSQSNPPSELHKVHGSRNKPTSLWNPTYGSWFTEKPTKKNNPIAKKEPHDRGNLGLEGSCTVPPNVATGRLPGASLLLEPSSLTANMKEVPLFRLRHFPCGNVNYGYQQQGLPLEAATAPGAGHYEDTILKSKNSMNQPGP
# UniProt P42336, sequence (whole entry, unmodified, looked up): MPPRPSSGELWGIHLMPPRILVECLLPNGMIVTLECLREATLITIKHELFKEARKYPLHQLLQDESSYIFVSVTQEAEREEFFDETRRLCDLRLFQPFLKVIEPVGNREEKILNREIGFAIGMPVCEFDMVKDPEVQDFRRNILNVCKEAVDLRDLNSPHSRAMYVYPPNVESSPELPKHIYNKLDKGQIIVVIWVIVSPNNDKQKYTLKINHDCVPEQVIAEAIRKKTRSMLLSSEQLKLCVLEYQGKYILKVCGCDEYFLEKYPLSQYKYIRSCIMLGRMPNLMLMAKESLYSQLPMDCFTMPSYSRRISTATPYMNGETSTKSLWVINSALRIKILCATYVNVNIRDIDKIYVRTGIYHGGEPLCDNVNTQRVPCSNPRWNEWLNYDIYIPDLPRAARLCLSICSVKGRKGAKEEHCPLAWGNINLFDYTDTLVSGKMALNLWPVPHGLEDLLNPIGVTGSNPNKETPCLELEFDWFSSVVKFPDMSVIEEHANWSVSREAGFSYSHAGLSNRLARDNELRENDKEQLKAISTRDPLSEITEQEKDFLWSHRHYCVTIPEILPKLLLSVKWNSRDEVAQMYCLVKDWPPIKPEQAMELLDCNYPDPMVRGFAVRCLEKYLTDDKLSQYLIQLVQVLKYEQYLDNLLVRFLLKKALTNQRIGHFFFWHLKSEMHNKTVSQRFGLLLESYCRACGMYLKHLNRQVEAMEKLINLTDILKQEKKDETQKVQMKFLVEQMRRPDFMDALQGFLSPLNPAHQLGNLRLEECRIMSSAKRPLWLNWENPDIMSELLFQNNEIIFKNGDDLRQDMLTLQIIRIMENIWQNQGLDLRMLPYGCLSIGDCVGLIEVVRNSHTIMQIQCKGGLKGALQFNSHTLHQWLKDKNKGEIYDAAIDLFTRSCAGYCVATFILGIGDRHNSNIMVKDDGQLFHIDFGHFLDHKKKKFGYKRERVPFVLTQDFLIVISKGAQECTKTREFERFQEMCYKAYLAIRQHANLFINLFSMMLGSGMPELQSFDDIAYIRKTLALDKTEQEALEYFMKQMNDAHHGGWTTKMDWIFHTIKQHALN
# UniProt P52333, sequence (whole entry, looked up): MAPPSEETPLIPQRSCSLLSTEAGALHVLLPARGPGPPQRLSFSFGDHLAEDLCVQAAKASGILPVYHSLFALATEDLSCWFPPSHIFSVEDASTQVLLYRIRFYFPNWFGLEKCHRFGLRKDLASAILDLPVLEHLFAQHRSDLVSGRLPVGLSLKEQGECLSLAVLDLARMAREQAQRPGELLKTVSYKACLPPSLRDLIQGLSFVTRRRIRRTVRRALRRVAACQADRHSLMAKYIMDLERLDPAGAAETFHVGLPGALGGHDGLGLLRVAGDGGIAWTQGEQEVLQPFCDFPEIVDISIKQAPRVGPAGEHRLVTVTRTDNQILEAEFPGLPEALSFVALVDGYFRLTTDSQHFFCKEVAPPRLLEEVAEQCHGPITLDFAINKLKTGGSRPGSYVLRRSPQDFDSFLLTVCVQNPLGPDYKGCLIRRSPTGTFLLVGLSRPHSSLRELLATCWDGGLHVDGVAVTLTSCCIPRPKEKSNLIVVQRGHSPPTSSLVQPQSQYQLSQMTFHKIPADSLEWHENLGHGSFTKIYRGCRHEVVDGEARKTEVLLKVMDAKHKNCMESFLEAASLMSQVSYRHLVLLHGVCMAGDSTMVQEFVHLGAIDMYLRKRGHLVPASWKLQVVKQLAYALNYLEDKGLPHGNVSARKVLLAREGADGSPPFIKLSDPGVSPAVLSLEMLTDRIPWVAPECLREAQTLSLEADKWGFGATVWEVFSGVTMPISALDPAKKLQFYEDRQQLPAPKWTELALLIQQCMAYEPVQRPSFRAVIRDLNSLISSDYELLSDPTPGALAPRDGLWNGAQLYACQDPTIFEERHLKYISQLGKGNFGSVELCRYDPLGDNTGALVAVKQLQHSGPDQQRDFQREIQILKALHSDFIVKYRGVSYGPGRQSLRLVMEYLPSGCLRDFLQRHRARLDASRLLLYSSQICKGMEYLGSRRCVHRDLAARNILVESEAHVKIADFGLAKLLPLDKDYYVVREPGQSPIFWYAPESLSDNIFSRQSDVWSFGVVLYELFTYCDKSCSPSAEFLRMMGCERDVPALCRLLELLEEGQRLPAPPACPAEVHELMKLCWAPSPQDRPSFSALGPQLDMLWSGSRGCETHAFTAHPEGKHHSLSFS
# UniProt Q92918, sequence (whole entry, looked up): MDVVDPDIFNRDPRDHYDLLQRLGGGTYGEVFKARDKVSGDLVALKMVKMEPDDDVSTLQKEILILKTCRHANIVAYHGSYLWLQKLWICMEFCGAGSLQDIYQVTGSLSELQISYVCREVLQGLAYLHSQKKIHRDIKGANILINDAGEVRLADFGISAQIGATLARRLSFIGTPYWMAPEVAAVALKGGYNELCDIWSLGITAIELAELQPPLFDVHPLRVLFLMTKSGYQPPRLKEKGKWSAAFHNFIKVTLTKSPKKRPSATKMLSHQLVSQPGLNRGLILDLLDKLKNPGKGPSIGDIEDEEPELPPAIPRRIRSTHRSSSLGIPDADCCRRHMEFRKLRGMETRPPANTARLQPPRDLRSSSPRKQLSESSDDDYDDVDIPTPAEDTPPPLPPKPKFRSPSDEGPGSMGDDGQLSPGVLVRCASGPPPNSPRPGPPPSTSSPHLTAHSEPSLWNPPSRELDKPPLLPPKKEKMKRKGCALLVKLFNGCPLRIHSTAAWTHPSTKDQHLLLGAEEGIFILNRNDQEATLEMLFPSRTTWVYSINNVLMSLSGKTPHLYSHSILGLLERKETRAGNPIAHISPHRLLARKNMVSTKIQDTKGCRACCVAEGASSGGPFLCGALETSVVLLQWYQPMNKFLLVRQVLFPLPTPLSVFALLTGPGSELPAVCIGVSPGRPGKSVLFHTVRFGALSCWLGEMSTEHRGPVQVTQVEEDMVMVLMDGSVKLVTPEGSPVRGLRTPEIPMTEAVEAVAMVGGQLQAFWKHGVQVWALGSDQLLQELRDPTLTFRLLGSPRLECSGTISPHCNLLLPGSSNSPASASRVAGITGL

# Block 1
# Cell line: A-375
# Tested at: 100 µM
# Time: 36 h
SMILES,viability [%]
Nc1c2c(nc3ccccc13)CCCC2,58.2
OCCN1CCN(CCCN2c3ccccc3Sc3ccc(Cl)cc32)CC1,-0.0139
CC(C)COc1ccc(CNC(=O)N(Cc2ccc(F)cc2)C2CCN(C)CC2)cc1,0.404
COc1cc(C(=O)N2CCOCC2)cc(OC)c1OC,105
CC1(C)S[C@@H]2[C@H](NC(=O)[C@H](N)c3ccccc3)C(=O)N2[C@H]1C(=O)OCOC(=O)[C@@H]1N2C(=O)C[C@H]2S(=O)(=O)C1(C)C,68.4
CC(CN(C)C)CN1c2ccccc2Sc2ccccc21 (centres unmarked),2.2
OCCN1CCN(CC/C=C2/c3ccccc3Sc3ccc(C(F)(F)F)cc32)CC1,1.1

# Block 2
# Species: human
# Medium: microsomes or S9
# Tested at: 2 µM
# Time: 0.5 h
SMILES,remaining compound
O=C(c1ccc(OC(c2ccc(Cl)cc2)c2ccccc2Cl)c(F)c1)N1CC(O)C(O)C1 (centres unmarked),69.3%
COc1ccc(CCc2nc(C)c(O)c(-c3nnn[nH]3)c2C(=O)O)cc1,45%
Cc1cc(C)nc(NC(N)=Nc2ccc(CC(=O)OC(C)C)cc2)n1,> 100%
Fc1ccc(CNc2c(-c3ccccn3)nc3cnccn23)cc1,0.00891%
Cc1cccc(C2=C(N)OC(c3ccc(Cl)cc3)C2=O)n1 (centres unmarked),11.8%

# Block 3
# Compound: CO[C@@H](C)c1c(Nc2ccc([C@@H](N(C)C(=O)C3CCS(=O)(=O)CC3)C(F)(F)F)cc2)cnc2cc(Cl)nn12
# Observed: cell-free assay
# Method: competition with immobilised ligand
# Tested at: 1 µM
target,remaining binding
"ALK (Homo sapiens, UniProt Q9UM73, L1196M)",94%
"Ribosomal protein S6 kinase alpha-3, C-terminal kinase domain (RPS6KA3, Homo sapiens, UniProt P51812)",100%
"HASPIN (Homo sapiens, UniProt Q8TF76)",100%
"FLT3 (Homo sapiens, UniProt P36888, K663Q)",94%
"PIP4K2C (Homo sapiens, UniProt Q8TBX8)",58%
"MAP3K15 (Homo sapiens, UniProt Q6ZN16)",100%
"CDK8 (Homo sapiens, UniProt P49336)",96%
"MINK1 (Homo sapiens, UniProt Q8N4C8)",100%
"Aurora kinase C (AURKC, Homo sapiens, UniProt Q9UQB9)",85%
"PAK5 (Homo sapiens, UniProt Q9P286)",100%
"MAP4K1 (Homo sapiens, UniProt Q92918)",100%
"Tyrosine-protein kinase JAK3, JH1 (JAK3, Homo sapiens, UniProt P52333)",98%
"LATS2 (Homo sapiens, UniProt Q9NRM7)",88%
"MERTK (Homo sapiens, UniProt Q12866)",79%
"BMP2K (Homo sapiens, UniProt Q9NSY1)",91%
"PIK3CA (Homo sapiens, UniProt P42336, H1047Y)",52%

# Block 4
# Target: Casein kinase I isoform epsilon (CSNK1E, Homo sapiens, UniProt P49674)
# UniProt P49674, sequence (whole entry, looked up): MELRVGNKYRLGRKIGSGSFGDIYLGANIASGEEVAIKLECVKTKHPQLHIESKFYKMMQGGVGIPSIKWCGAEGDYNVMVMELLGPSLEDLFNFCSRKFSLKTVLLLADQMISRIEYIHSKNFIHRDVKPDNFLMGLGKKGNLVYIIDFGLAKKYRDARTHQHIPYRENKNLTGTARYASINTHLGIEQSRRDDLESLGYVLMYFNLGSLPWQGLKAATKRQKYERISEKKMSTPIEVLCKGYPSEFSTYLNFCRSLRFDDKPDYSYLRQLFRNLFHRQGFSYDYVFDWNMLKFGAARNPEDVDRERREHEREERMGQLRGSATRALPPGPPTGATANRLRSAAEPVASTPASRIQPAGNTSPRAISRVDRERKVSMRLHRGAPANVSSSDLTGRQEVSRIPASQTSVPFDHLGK
# Observed: enzyme activity
# Mode: inhibitor
# Tested at: 0.5 µM
# Reference: control
SMILES,remaining activity [%]
CCOc1nc(NC(=O)Cc2cc(OC)ccc2OC)cc(N)c1C#N,101
CN([C@@H](Cc1ccc(OS(=O)(=O)c2cccc3cnccc23)cc1)C(=O)N1CCN(c2ccccc2)CC1)S(=O)(=O)c1cccc2cnccc12,103
O=C(Nc1cccc(Nc2nccc(Nc3cccc(C(F)(F)F)c3)n2)c1)C1CC1,110
O=C1C(Cl)=C(N2C(=O)CCC2=O)C(=O)c2ccccc21,102
Ic1cccc(CSc2nnc(-c3ccncc3)o2)c1,94.3
Cc1nc2cc3nc(-c4cccs4)cnc3cc2n1C,94.5
COc1cc2c(cc1OC)-c1[nH]nc(Nc3cccc(F)c3)c1C2,94.3
COc1cc2ncnc(Nc3ccc(O)c(Br)c3)c2cc1OC,85.1
Cn1nc2c3c(cccc31)C(=O)c1ccccc1-2,34.3

# Further values, each from its own experiment
SMILES,medium,quantity,result
CCC[C@H]1NC(=O)CSC[C@@H](C(=O)OCC)N(C)C(=O)[C@H](CC(C)C)NC(=O)[C@H](C)N(C)C(=O)[C@@H](CC(C)C)NC(=O)[C@H](C)N(C)C(=O)[C@H]2CCCN2C(=O)[C@@H](CC(C)C)NC(=O)CN(C)C1=O,hydrocarbon/water,logD,0.499

# For quick reference, copied from above (block 3):
target,remaining binding
"Ribosomal protein S6 kinase alpha-3, C-terminal kinase domain (RPS6KA3, Homo sapiens, UniProt P51812)",100%
"HASPIN (Homo sapiens, UniProt Q8TF76)",100%
